Measured values of several laboratories.
Values joined by “and” are separate records of one study, mostly repeats; a detail may differ. Numbers after ± are the reported error.
ADRA2C: Alpha-2C adrenergic receptor (ADRA2C, Homo sapiens, UniProt P18825)
Voltage-dependent P/Q-type calcium channel subunit alpha-1A: Voltage-dependent P/Q-type calcium channel subunit alpha-1A (Homo sapiens, UniProt O00555)
UCHL1: Ubiquitin carboxyl-terminal hydrolase isozyme L1 (UCHL1, Homo sapiens, UniProt P09936)
T1: RNA aptamer (Homo sapiens); chain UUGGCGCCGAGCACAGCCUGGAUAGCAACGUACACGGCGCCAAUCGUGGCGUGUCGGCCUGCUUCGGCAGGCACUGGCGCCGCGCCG; chain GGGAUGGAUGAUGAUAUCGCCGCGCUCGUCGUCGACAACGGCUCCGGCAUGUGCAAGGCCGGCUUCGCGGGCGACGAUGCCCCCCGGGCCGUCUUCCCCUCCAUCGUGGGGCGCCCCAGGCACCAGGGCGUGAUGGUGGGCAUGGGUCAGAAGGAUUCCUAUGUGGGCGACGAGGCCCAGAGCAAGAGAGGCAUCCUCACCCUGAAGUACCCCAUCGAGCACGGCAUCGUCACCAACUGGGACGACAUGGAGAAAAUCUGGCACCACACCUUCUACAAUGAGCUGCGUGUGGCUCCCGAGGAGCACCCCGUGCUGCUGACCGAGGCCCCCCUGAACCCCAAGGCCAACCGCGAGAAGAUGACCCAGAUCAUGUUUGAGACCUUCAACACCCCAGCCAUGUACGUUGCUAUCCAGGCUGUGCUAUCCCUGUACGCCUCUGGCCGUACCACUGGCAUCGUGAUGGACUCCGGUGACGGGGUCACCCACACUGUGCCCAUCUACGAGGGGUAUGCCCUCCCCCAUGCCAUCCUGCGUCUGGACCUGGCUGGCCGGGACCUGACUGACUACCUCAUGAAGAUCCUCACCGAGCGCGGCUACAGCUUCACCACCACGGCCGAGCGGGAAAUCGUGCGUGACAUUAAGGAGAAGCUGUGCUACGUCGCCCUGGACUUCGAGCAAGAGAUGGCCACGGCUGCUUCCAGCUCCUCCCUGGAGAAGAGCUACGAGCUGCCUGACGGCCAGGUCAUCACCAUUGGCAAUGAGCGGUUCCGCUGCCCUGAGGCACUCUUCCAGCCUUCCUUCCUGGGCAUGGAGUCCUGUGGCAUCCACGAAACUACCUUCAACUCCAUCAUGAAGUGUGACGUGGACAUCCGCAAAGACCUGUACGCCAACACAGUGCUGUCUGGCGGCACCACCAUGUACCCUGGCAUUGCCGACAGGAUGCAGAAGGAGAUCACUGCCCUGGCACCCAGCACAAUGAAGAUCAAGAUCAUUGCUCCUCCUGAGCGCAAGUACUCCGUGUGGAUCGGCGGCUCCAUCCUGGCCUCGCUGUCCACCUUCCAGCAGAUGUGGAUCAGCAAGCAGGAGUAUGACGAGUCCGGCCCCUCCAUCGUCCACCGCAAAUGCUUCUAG

The target engagement of `[O-][S+]1CCCCS1` (stereo not drawn) is reported as 20.7% (SOD1 (Homo sapiens, UniProt P00441, G94A); intact protein LC-MS; SOD1 G93A transgenic mice, whole blood; intravenous, 10 mg/kg, 48 h, mean of two mice).
`C=CC(=O)N1CCC(COCC(=O)N2CCN(c3nc(-c4cnc(N)nc4C(F)F)nc(N4CCOC[C@@H]4C)n3)CC2)CC1` has a remaining binding of 92% (LRRK2 (Homo sapiens, UniProt Q5S007, G2019S); KINOMEscan; 1 µM).
`Cc1ccc(N2CCN(Cc3cccnc3Oc3ccc(-c4c(C)c(=O)[nH]c(=O)n4C)c(C)c3)CC2)cc1C` gave a selectivity ratio of 5 (ADRA2C; binding, radioligand binding; with: [3H]rauwolscine; reference: Ki alpha2A over Ki alpha2C).
`Nc1nc2ccc(OC(F)(F)F)cc2s1` has an inhibition of 24% (Voltage-dependent P/Q-type calcium channel subunit alpha-1A; ion current, antagonist; HEK293; 10 µM).
Under “probe labeling increase”, `Cc1ccc(S(=O)(=O)n2nc(SCc3ccc(Cl)cc3)nc2N)cc1` is recorded as 2.2 fold (LYPLAL1 (Homo sapiens, UniProt Q5VWZ2); enzyme activity, activator, gel-based ABPP; purified protein; concentration not given, with: FP-rhodamine; reference: DMSO).
`Nc1ncnc2c1ncn2[C@@H]1O[C@H](COP(=O)(O)CP(=O)(O)OP(=O)(O)O)[C@@H](O)[C@H]1O` gave a specific binding of 4910 CCPM (P2X purinoceptor 1 (P2RX1, Homo sapiens, UniProt P51575, K136W); saturation binding; HEK293; 130 nM).
`O=C(O)c1ccc(O)cc1` has a current density of -17.1 pA/pF and -15.5 pA/pF and -9.82 pA/pF and -11.6 pA/pF and -13.4 pA/pF and -16.8 pA/pF and -8.07 pA/pF (BEST1 (Homo sapiens, UniProt O76090); whole-cell patch clamp; HEK293 transiently expressing channel; concentration not given, membrane potential -40 mV).
The labelling of `O=C(CCl)N1c2ccccc2Sc2ccc(Cl)cc21` is reported as 16.5% (UCHL1; covalent, intact protein LC-MS; 12.5 µM).
`COC(=O)c1cn(C)c2ccc(-c3cccnc3)cc12` has an activation of 0.89 fold (HNF4A (Homo sapiens, UniProt P41235); reporter gene, Gal4 hybrid reporter; 10 µM; reference: vehicle).
For `COc1ccc2c(c1)c(CC(=O)O)c(C)n2C(=O)c1ccc(Cl)cc1`, the inhibition was -6% (Voltage-dependent P/Q-type calcium channel subunit alpha-1A; ion current, antagonist; HEK293; 30 µM).
With `Cc1cc2c(cc1CCNS(=O)(=O)c1ccsc1C(=O)O)CCCC2` the remaining activity was 71% (malate dehydrogenase; enzyme activity, inhibitor; 200 µM, pH 7.0, 1% DMSO, aggregation counter-screen).
With `COc1nc(Cl)nc(N2CCCCC2)n1` the labelling was 4.23% (UCHL1; covalent, intact protein LC-MS; 12.5 µM).
For `Cc1cc(Oc2ncccc2CN2CCN(c3ccccc3Br)CC2)ccc1-c1c(C)c(=O)[nH]c(=O)n1C`, the selectivity ratio was 3 (ADRA2C; binding, radioligand binding; with: [3H]rauwolscine; reference: Ki alpha2B over Ki alpha2C).
For `CC12CC3CC(C)(C1)CC(N)(C3)C2`, the IC30 was 1.78 µM (Voltage-dependent P/Q-type calcium channel subunit alpha-1A; ion current, antagonist, automated patch clamp).
`COc1cc(C(=O)[O-])cc(COC(=O)N(C)C(=O)c2ccc(N3C(=S)N(c4ccc(C#N)c(C(F)(F)F)c4)C(=O)C3(C)C)cc2F)c1OP(=O)([O-])[O-].[Na+].[Na+].[Na+]`: “drug formation rate” 1.81 pmol/min (Alkaline phosphatase, placental type (Homo sapiens, UniProt P05187); substrate; 100 µM, pH 7.6, 37 °C).
The ligand efficiency of `Cc1ccc2c(c1)NC(=O)C2CC(=O)NCCNC(=O)CCn1c(=O)[nH]c(=O)c2ccccc21` (stereo not drawn) is reported as 0.41 (TNKS (Homo sapiens, UniProt O95271); enzyme activity, inhibitor).
`O=c1nc(SCc2cc(F)cc(C(F)(F)F)c2)nc(SCc2ccc3nc(OCCN4CCOCC4)ccc3c2)[nH]1` gave a linear DNA of 0% (TOP2A (Homo sapiens, UniProt P11388); DNA cleavage; 7.8 µM, replicate 2).
For `O=c1[nH]c2ccc(NS(=O)(=O)c3cc(Cl)cc(Cl)c3O)cc2s1`, the remaining activity was 73% (malate dehydrogenase; enzyme activity, inhibitor; 200 µM, pH 7.0, 1% DMSO, aggregation counter-screen).
The TR-FRET signal of `CC1=C[C@H](O/C=C2/C(=O)O[C@@H]3c4ccccc4C[C@H]23)OC1=O` (racemic) is reported as 2.59 (D14, with SMXL7 (Arabidopsis thaliana, UniProt Q9SQR3); complex formation with SMXL7, agonist, TR-FRET; 50 µM, 300 min, unit not given, with: Arabidopsis SMXL7 10 µg/mL, D14-mEGFP 100 nM; reference: control).
For `O=C(N1CCN(Cc2ccc(OCc3ccccc3)cc2)CC1)n1cccn1`, “time to maximal inhibition” read about 3 h (Faah (Rattus norvegicus, UniProt P97612); inhibitor; 5 nM, pH 9, 25 °C).
`c1coc(-c2n[nH]cc2-c2ccnc3ccccc23)c1`: “log2 fold change” -0.31 (Extracellular signal-regulated kinase 1 (CEK1, Candida albicans, UniProt Q5A1D3); kinase binding, MIB/MS competition; Candida albicans lysate; 1 µM; reference: DMSO, negative = stronger binding).
`CC(Cl)C(=O)NCc1ccccc1S(=O)(=O)N1CCOCC1` (stereo not drawn) gave a labelling of 13.5% (UCHL1; covalent, intact protein LC-MS; 12.5 µM).
The decatenated DNA of `O=c1nc(SCc2cc(F)cc(C(F)(F)F)c2)nc(SCc2ccc3sccc3c2)[nH]1` is reported as 100% (TOP2B (Homo sapiens, UniProt Q02880); decatenation; 7.8 µM, replicate 1).
`N#Cc1c(N=Cc2cc([N+](=O)[O-])c(Cl)cc2Cl)sc2c1CCCC2` has a labelling of 3.39% (UCHL1; covalent, intact protein LC-MS; 12.5 µM).
With `O=[N+]([O-])c1cn2c(n1)O[C@@H](COc1ccc(-c3ccc(F)cc3)nc1)CC2` the inhibition was -5.4% (Trypanosoma cruzi; reporter translation, Renilla luciferase mRNA translation; cell-free extract; 40 µM; reference: DMSO).
With `O=C(O)c1ccc(Nc2ncc3c(n2)-c2ccc(Cl)cc2C(c2c(F)cccc2F)=NC3)cc1` the remaining activity was 106% (MSK2(h); kinase activity; 1 µM).
For `CCN(c1ccccc1)S(=O)(=O)c1ccc(Cl)c(C(=O)Nc2ccccc2N2CCN(CC3CC3)C2=O)c1`, the selectivity ratio was over 2 fold (N-myristoyltransferase (Cryptosporidium parvum, UniProt Q5CV46); enzyme activity, inhibitor; reference: HsNMT1 IC50 over target IC50).
For `CCc1oc2ccccc2c1C(=O)c1cc(Br)c(O)c(Br)c1`, “normalized urate uptake” read 1 and 1.09 and 1.1 (SLC22A12 (Homo sapiens, UniProt Q96S37); inhibitor; HEK-293T; 0.1 µM, 10 min, 37 °C, with: [14C]urate 10 µM).
`CN(CCO)c1cc2sc(/C=C(\C#N)c3ccc(C#N)cc3)cc2s1` — result for binding: “binds” (T1, RNA aptamer (Homo sapiens); fluorescence activation).
With `CCCCC[C@H](O)/C=C/[C@H]1C(=O)C[C@H](O)[C@@H]1C/C=C\CCCC(=O)O` the activation was 88.3% (PTGDR (Homo sapiens, UniProt Q13258, D262A); agonist; 1.25 µM).
For `CC[C@@H]1[C@H](F)C(=O)N[C@@H]1COc1nccc2cc(C(N)=O)c(OC)cc12`, the inhibition was 0.0495% (ATR (Homo sapiens, UniProt Q13535); ATP-site probe binding, ActivX profiling; THP-1 cell lysate; 0.04 mM).
The activation of `CCCCCCCCC(=O)c1cc(O)c(O)c(O)c1` is reported as 1.16 fold (THRA (Homo sapiens, UniProt P10827); reporter gene, Gal4 hybrid reporter; 10 µM; reference: vehicle).
With `CCC(=O)NC[C@@H]1C[C@H]1c1cccc2c1CCO2` the IC30 was over 30 µM (Voltage-dependent P/Q-type calcium channel subunit alpha-1A; ion current, antagonist, automated patch clamp).
The selectivity ratio of `Cc1cc(Oc2ncccc2CN2CCN(C(c3ccccc3)c3ccccc3)CC2)ccc1-c1c(C)c(=O)[nH]c(=O)n1C` is reported as 1 (ADRA2C; binding, radioligand binding; with: [3H]rauwolscine; reference: Ki alpha2B over Ki alpha2C).
The span of `CCCCC[C@H](O)/C=C/[C@H]1CCC(=O)[C@@H]1C/C=C\CCCC(=O)O` is reported as 89.5 ± 3.47% (PTGER1 (Homo sapiens, UniProt P34995, H88A); IP1 accumulation, agonist; AD293; mutant H88A; reference: wild type).
For `CC#CC(=O)N1CCC(CNC(=O)c2ccc(C)c(F)c2)CC1`, the labelling was 12.3% (UCHL1; covalent, intact protein LC-MS; 12.5 µM).
The reaction velocity of `Nc1nc2c(ncn2[C@@H]2O[C@H](COP(=O)(O)O)[C@@H](O)[C@H]2O)c(=O)[nH]1` is reported as 0.0541 µM/s and 0.0599 µM/s and 0.0674 µM/s (GUK1 (Homo sapiens, UniProt Q16774); enzyme activity, NADH-coupled; 62.5 µM, with: NaCl 50 mM).
The labelling of `N#Cc1c(NC(=O)CCl)oc(-c2cccs2)c1-c1cccs1` is reported as 12% (UCHL1; covalent, intact protein LC-MS; 12.5 µM).
The IC30 of `CCN(C)C(=O)Oc1cccc([C@H](C)N(C)C)c1` is reported as over 30 µM (Voltage-dependent P/Q-type calcium channel subunit alpha-1A; ion current, antagonist, automated patch clamp).

For quick reference, copied from above:
`Nc1nc2ccc(OC(F)(F)F)cc2s1` has an inhibition of 24% (Voltage-dependent P/Q-type calcium channel subunit alpha-1A; ion current, antagonist; HEK293; 10 µM).
For `CCc1oc2ccccc2c1C(=O)c1cc(Br)c(O)c(Br)c1`, “normalized urate uptake” read 1 and 1.09 and 1.1 (SLC22A12 (Homo sapiens, UniProt Q96S37); inhibitor; HEK-293T; 0.1 µM, 10 min, 37 °C, with: [14C]urate 10 µM).
The span of `CCCCC[C@H](O)/C=C/[C@H]1CCC(=O)[C@@H]1C/C=C\CCCC(=O)O` is reported as 89.5 ± 3.47% (PTGER1 (Homo sapiens, UniProt P34995, H88A); IP1 accumulation, agonist; AD293; mutant H88A; reference: wild type).
`c1coc(-c2n[nH]cc2-c2ccnc3ccccc23)c1`: “log2 fold change” -0.31 (Extracellular signal-regulated kinase 1 (CEK1, Candida albicans, UniProt Q5A1D3); kinase binding, MIB/MS competition; Candida albicans lysate; 1 µM; reference: DMSO, negative = stronger binding).
The selectivity ratio of `Cc1cc(Oc2ncccc2CN2CCN(C(c3ccccc3)c3ccccc3)CC2)ccc1-c1c(C)c(=O)[nH]c(=O)n1C` is reported as 1 (ADRA2C; binding, radioligand binding; with: [3H]rauwolscine; reference: Ki alpha2B over Ki alpha2C).
